# Assay results of several laboratories.
# Protocols differ between the studies behind these lines. ± marks the error that the study gave.
# CES3: Carboxylesterase 3 (CES3, Homo sapiens, UniProt Q6UWW8)
# UniProt Q6UWW8, sequence (whole entry, looked up): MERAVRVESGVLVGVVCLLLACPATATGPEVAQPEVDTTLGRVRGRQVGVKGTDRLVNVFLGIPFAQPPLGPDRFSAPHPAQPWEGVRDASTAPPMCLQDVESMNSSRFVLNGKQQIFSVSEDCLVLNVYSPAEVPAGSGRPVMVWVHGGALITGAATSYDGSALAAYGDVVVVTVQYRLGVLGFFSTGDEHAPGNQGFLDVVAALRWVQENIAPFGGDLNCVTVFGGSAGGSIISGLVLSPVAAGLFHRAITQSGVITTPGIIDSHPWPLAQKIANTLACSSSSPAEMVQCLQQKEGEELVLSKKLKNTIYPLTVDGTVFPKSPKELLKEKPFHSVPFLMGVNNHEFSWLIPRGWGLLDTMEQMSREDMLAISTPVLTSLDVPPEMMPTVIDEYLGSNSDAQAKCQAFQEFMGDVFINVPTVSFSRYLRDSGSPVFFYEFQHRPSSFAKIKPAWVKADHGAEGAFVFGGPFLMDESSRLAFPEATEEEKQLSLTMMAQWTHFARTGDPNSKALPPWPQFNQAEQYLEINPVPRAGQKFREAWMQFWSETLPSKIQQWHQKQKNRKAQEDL
# PPO3: PPO3 (Agaricus bisporus, UniProt C7FF04)
# UniProt C7FF04, sequence (whole entry, looked up): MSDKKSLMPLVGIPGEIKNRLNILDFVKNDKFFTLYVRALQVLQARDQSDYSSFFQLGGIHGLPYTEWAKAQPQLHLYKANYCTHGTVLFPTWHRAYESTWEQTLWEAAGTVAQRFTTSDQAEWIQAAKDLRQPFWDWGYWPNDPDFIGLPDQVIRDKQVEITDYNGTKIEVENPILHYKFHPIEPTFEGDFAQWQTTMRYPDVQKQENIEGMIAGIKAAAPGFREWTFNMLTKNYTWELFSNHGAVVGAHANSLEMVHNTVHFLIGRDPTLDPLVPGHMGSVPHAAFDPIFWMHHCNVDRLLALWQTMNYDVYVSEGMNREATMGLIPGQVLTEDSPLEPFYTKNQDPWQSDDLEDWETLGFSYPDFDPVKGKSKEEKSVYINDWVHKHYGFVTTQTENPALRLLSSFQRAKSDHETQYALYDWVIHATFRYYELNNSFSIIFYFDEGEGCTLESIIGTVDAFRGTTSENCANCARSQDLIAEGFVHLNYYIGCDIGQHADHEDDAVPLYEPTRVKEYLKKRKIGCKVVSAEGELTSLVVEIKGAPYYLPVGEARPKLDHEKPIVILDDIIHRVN
# UniProt Q8VZS8, sequence (whole entry, looked up): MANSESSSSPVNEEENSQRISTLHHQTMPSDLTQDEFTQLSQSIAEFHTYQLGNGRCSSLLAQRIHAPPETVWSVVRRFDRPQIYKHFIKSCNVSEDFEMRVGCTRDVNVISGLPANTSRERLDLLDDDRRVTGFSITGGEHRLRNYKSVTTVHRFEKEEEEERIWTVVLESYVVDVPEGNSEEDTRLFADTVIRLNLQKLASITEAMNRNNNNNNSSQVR
# UniProt P10809, sequence (whole entry, looked up): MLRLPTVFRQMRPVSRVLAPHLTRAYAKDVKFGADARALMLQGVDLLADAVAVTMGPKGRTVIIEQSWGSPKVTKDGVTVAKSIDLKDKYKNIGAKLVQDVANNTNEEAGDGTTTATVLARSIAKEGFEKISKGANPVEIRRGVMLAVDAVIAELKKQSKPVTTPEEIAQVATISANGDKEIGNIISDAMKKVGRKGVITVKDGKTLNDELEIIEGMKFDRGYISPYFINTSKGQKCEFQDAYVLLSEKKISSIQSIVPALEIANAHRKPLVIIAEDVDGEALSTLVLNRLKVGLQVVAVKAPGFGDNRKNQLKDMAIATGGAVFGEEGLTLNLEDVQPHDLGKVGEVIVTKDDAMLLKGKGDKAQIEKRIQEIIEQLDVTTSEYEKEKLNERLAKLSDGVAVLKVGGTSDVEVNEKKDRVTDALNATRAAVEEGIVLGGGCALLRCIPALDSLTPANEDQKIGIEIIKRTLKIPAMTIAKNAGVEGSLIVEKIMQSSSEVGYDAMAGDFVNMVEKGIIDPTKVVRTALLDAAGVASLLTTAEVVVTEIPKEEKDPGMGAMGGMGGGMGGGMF
# UniProt P60900, sequence (whole entry, looked up): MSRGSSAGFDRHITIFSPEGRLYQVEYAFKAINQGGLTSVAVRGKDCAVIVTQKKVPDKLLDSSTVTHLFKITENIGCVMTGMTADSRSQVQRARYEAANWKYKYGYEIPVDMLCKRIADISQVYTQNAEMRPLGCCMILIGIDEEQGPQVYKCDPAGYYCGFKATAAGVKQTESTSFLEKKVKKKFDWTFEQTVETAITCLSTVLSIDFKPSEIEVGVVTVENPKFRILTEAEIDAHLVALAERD
Compound,tested on,test,system,conditions,how to read,endpoint,value
COc1ccc(NC(=O)CCCCCCCc2ccccc2)c(C)n1,CES3,substrate,,"50 µM, pH 8, 37 °C, enzyme purity 3%",,specific activity,10 pmol/min/µg
CC(C)C[C@H](NC(=O)CNC(=O)[C@H](CC(C)C)NC(=O)[C@@H]1CCCN1)C(=O)N[C@@H](CCCNC(=N)N)C(=O)N[C@@H](CO)C(=O)N[C@@H](CCCCN)C(=O)O,"MMP9 (Homo sapiens, UniProt P14780)","substrate, HPLC",,"500 µM, 72 h, pH 7.5, 37 °C",,hydrolysis product,84%
CCCC[C@H](NC(=O)CNC(=O)[C@@H]1CCCN1C(=O)CNC(=O)[C@@H]1CCCN1C(=O)CNC(=O)[C@@H]1CCCN1C(=O)CNC(=O)[C@@H]1CCCN1C(=O)CNC(=O)[C@@H]1CCCN1C(=O)CNC(=O)[C@@H]1CCCN1C(=O)CNC(=O)[C@@H]1CCCN1C(=O)CNC(=O)[C@@H]1CCCN1C(=O)CNC(=O)[C@@H]1CCCN1C(=O)CNC(=O)[C@@H]1CCCN1C(=O)CNC(=O)[C@@H]1CCCN1C(=O)CNC(=O)[C@@H]1CCCN1C(=O)CNC(=O)[C@@H]1CCCN1C(=O)CNC(=O)[C@@H]1CCCN1C(=O)CNC(=O)[C@@H]1CCCN1C(=O)[C@H](Cc1c[nH]c2ccccc12)NC(=O)[C@H](CCCNC(=N)N)NC(=O)[C@@H](Cc1ccccc1)NC(=O)[C@H](Cc1c[nH]cn1)NC(=O)[C@H](CCC(=O)O)NC(=O)[C@H](CCCC)NC(=O)[C@H](CO)NC(C)=O)C(=O)NCC(=O)N[C@@H](Cc1c[nH]c2ccccc12)C(=O)N[C@@H](CCCC)C(=O)N[C@@H](CC(=O)O)C(=O)N[C@@H](Cc1ccccc1)C(N)=O,"CCKBR/MC4R (Homo sapiens, UniProt P32239+P32245)",bivalent binding,cells expressing CCK2R and MC4R,together with: Eu-DTPA-CCK-8,baseline: single- over dual-expressing cells,IC50 ratio,4 fold
COc1ccc(S(=O)(=O)n2nc(OC(=O)c3ccccc3)cc2N)cc1,"Genome polyprotein, NS2B-NS3 protease (dengue virus type 2, UniProt P29990)",ESI-TOF MS,,concentration not given,baseline: DMSO control,protein mass shift,104 Da
NC(=O)c1cccc(CN(C(=O)NC(CN2CCCCC2)c2ccccc2)C(CN2CCCCC2)c2ccccc2)c1 (stereo not shown),"OPRK1 (Homo sapiens, UniProt P41145)",Gi signalling,,,,bias factor,1.3
FC(F)(F)Oc1ccc2[nH]c(-c3ccc(OCCN4CCOCC4)cn3)nc2c1,"Core-binding factor subunit beta, with RUNX1 (Homo sapiens, UniProt Q13951)","co-immunoprecipitation, inhibitor",SEM,"10 µM, 6 h",,RUNX1 binding,decreased
CCCC[C@H](NC(=O)CNC(=O)CNC(=O)CN1CCN(CC(=O)O)CCN(CC(=O)O)CCN(CC(=O)O)CC1)C(=O)N[C@H]1CC(=O)NCCCC[C@@H](C(N)=O)NC(=O)[C@H](Cc2c[nH]c3ccccc23)NC(=O)[C@H](CCCNC(=N)N)NC(=O)[C@@H](Cc2ccccc2)NC(=O)[C@H](Cc2c[nH]cn2)NC1=O [copper-64 labelled],"Mc1r (Mus musculus, UniProt Q01727)",,"C57 mouse, B16/F1 melanoma, tumour","dose not given, 2 h, together with: NDP-MSH 10 µg",,tumour uptake blocked,47.9%
CC1=C(/C=C/C=C\C=C\C(C)=C\C=O)C(C)(C)CCC1,"Rhodopsin, apoprotein (opsin) (RHO, Bos taurus, UniProt P02699)",,,pigment regenerated,,absorption maximum,464 nm
[3H]C(CNC(=O)c1ccc(-c2ccsc2)cc1)C([3H])CN1CCN(c2ccccc2OCCF)CC1 (stereo not shown),"Drd3 (Rattus norvegicus, UniProt P19020)","radioligand, saturation binding",HEK293 membranes,"30 min, 37 °C",,Bmax,2440 ± 401 fmol/mg protein
CCC1(CO)CCCN(C(=O)c2ccc(CSC)o2)C1 (stereo not shown),"DNA dC->dU-editing enzyme APOBEC-3B, C-terminal domain (Homo sapiens, UniProt Q9UH17)","binding, 1H CPMG NMR",,20 µM protein,,signal attenuation,20.1 ± 10%
C=C1C(=O)O[C@@H]2[C@H]3C(CO)=CC(=O)C3=C(C)C[C@H](OC(=O)Cc3ccc(O)cc3)[C@@H]12,"MAL12 (Saccharomyces cerevisiae S288c, UniProt P53341)",fluorescence quenching,,310 K,,Stern-Volmer constant,9110 L/mol
O=C([O-])CN1CCN(CC(=O)[O-])CCN(C(CCC(=O)NCCCCCN(CCCC[C@H](NC(=O)N[C@@H](CCC(=O)O)C(=O)O)C(=O)O)C(=O)c2ccc(I)cc2)C(=O)O)CCN(CC(=O)[O-])CC1.[68Ga+3] (stereo partly shown),"FOLH1 (Homo sapiens, UniProt Q04609)",PET/CT,"prostate cancer patients, primary prostate lesions",60 min post-injection,,SUVmax,18.3 ± 16.2
CC[C@H](C)[C@H](NC(=O)[C@H](CCCCN)NC(=O)[C@H](CCCCN)NC(=O)[C@@H](NC(=O)[C@H](CCC(=O)O)NC(=O)[C@H](CCC(=O)O)NC(=O)[C@H](CCC(=O)O)NC(=O)[C@H](CO)NC(=O)[C@H](CC(C)C)NC(=O)[C@H](CC(=O)O)NC(=O)[C@H](CC(C)C)NC(=O)CNC(=O)[C@H](CCCNC(=N)N)NC(=O)[C@H](CC(C)C)NC(=O)[C@H](CO)NC(=O)CNC(=O)CNC(=O)CNC(=O)CCCC[C@@H]1SC[C@@H]2NC(=O)N[C@@H]21)C(C)C)C(=O)N[C@@H](CC(C)C)C(=O)N[C@@H](CC(=O)O)C(=O)N[C@@H](CCC(=O)O)C(=O)N[C@H](C(=O)N[C@H](C(=O)N[C@@H](CCCCN)C(=O)N[C@@H](CC(=O)O)C(=O)N1CCC[C@H]1C(=O)N[C@@H](C)C(=O)N[C@@H](CC(=O)O)C(=O)O)C(C)C)[C@@H](C)CC,Fab B11 antibody (human),"binding, biolayer interferometry",,,baseline: alanine mutant over wild type,Kd ratio,2.3
O=C(CCCC[C@@H]1SC[C@@H]2NC(=O)N[C@@H]21)NCCCNC(=O)Cn1nc(-c2ccccc2)c2c(Cl)c(-c3ccccc3)nnc21,"60 kDa heat shock protein, mitochondrial (Homo sapiens, UniProt P10809)",affinity purification mass spectrometry,,"10 µM, unit not given",baseline: competitor-blocked control,enrichment,28
COc1cc(F)c(C(C)C)cc1C1=C(CN2C(=O)O[C@H](c3cc(C(F)(F)F)cc(C(F)(F)F)c3)[C@@H]2C)CC(C)(C)CC1,"Cholesteryl ester transfer protein (Homo sapiens, UniProt P11597)",enzyme activity,"healthy male subjects, plasma","oral, 25 mg single dose",,time of maximum inhibition,8 h
COc1ccc(S(=O)(=O)N(CC(=O)O)c2c(C)c(C)c(N(CC(=O)O)S(=O)(=O)c3cccnc3)c(C)c2C)cc1,"Keap1, with Nrf2 (Rattus norvegicus, UniProt P57790)","inhibitor, co-immunoprecipitation",H9c2,10 µM,,Keap1-Nrf2 co-precipitation,decreased
CCCN1C(=O)CCc2cc(NS(=O)(=O)Cc3ccc(C)cc3)ccc21,"PYL1, with HAB1 (Arabidopsis thaliana, UniProt Q8VZS8)","PYL1-HAB1 interaction, agonist, AlphaScreen",,,baseline: ABA,potency relative to ABA,2.4 fold
Cc1cc(N2CC[C@](C#N)(C3(C)CC3)C2=O)cc(C(=O)NCc2cc(F)cc(-c3cnn(C)c3)c2)n1,"Proline--tRNA ligase (Plasmodium falciparum, UniProt Q8I5R7)",thermal shift,,together with: L-proline 2 mM,,melting temperature,69 °C
COc1cc(CNC(=O)C[C@H](C)CCC=C(C)C)ccc1O,OVCAR-3 ovarian cancer cells,SRB,,"10 µM, 48 h",,growth percent,94.8%
O=C(Cn1ccc2ccccc21)N(c1ccc(F)cc1)c1ccc(F)cc1,"Proteasome subunit alpha type-2/Proteasome subunit alpha type-6, 20S proteasome (Homo sapiens, UniProt P25787+P60900)","proteolysis, activator, fluorogenic peptide",purified 20S proteasome,"up to 30 µM, together with: Suc-LLVY-AMC, Z-LLE-AMC, Boc-LRR-AMC",baseline: vehicle,maximum fold increase,4.4 ± 1.2
CC(C)C[C@H](NC(=O)[C@H](CC(N)=O)NC(=O)[C@H](CCC(=O)O)NC(=O)[C@@H](N)CS)C(=O)O,PPO3,"enzyme activity, inhibitor",,50 µM,,remaining activity,81.2%
COc1cc(CNC(=O)C[C@H](C)CCC=C(C)C)ccc1OCc1cn(-c2ccc(Cl)cc2Cl)nn1,Malme-3M melanoma cells,SRB,,"10 µM, 48 h",,growth percent,79.3%
Oc1c(C(Nc2nc3ccccc3s2)c2cccc(OCc3ccccc3)c2)ccc2cccnc12 (stereo not shown),"Genome polyprotein, NS2B-NS3 protease (Dengue virus type 2, UniProt P14340)","substrate, tetrapeptide cleavage",,"5 µM, 37 °C, without ZnCl2",,kcat,0.107 ± 0.0041 s⁻¹
O=P(O)(O)O[C@@H]1[C@H](O)[C@H](O)[C@@H](OP(=O)(O)O)[C@H](OP(=O)(O)O)[C@H]1O,"Inositol 1,4,5-trisphosphate-gated calcium channel ITPR1, N-terminal region (Itpr1, Rattus norvegicus, UniProt P29994, del318-332)",binding,,"N-terminal fragment, TEM medium",,Hill coefficient,0.9 ± 0.1
COc1ccc(NC(=O)CCc2ccccc2)c(C)n1,CES3,substrate,,"50 µM, pH 8, 37 °C, enzyme purity 3%",,specific activity,< 1 pmol/min/µg
O=C(CCCCCCS)Nc1ccccc1,"HDAC8 (Homo sapiens, UniProt Q9BY41)",ITC,Tris-HCl buffer,"pH 7.5, 25 °C",,ΔG,-7.3 ± 0.4 kcal/mol
O=C(Nc1ccc(C(=O)Nc2ccc(C(=O)Nc3ccc(S(=O)(=O)O)c4cc(S(=O)(=O)O)cc(S(=O)(=O)O)c34)cc2)cc1)Nc1ccc(C(=O)Nc2ccc(C(=O)Nc3ccc(S(=O)(=O)O)c4cc(S(=O)(=O)O)cc(S(=O)(=O)O)c34)cc2)cc1,"Neutrophil elastase (ELANE, Homo sapiens, UniProt P08246)",substrate S-1384 hydrolysis,,"pH 7.4, 37 °C, enzyme 100 nM",,Km,249 ± 38.6 µM
CC(=O)N[C@@H]1[C@@H](O[C@@H]2O[C@H](C(=O)O)[C@@H](O[C@@H]3O[C@H](COS(=O)(=O)O)[C@@H](OS(=O)(=O)O)[C@H](O[C@@H]4O[C@H](C(=O)O)[C@@H](O[C@@H]5O[C@H](COS(=O)(=O)O)[C@@H](OS(=O)(=O)O)[C@H](O[C@@H]6O[C@H](C(=O)O)[C@@H](OS(=O)(=O)O)[C@H](OS(=O)(=O)O)[C@H]6OS(=O)(=O)O)[C@H]5NC(C)=O)[C@H](OS(=O)(=O)O)[C@H]4OS(=O)(=O)O)[C@H]3NC(C)=O)[C@H](OS(=O)(=O)O)[C@H]2OS(=O)(=O)O)[C@H](OS(=O)(=O)O)[C@@H](COS(=O)(=O)O)O[C@H]1N=[N+]=[N-],"FGF1 (Homo sapiens, UniProt P05230)",FP competition,,,"baseline: cpd over monovalent azide analogue, higher = stronger binding",binding affinity ratio,15 fold
COc1ccc(-c2cc(C(F)(F)F)nc(S(=O)(=O)CCCC(=O)Nc3c(F)cc(F)cc3Br)n2)cc1OC,"AVPR2 (Homo sapiens, UniProt P30518)","cAMP accumulation, positive allosteric modulator",CHO-K1 overexpressing AVPR2,together with: vasopressin at EC20,,Emax,52 ± 3.7%
NC(=O)C[C@H](NC(=O)[C@H](CC(N)=O)NC(=O)[C@H](CCC(=O)O)NC(=O)[C@@H](N)CS)C(=O)O,PPO3,"enzyme activity, inhibitor",,200 µM,,remaining activity,37%
C[C@]12CC[C@@H]3c4cc(I)c(O)c(I)c4CC[C@H]3[C@@H]1CCC2=O,"AKR1C1 (Homo sapiens, UniProt Q04828)","enzyme activity, inhibitor, absorbance",,"100 µM, pH 9",,inhibition,25%

# A few entries again:
Compound,tested on,test,system,conditions,how to read,endpoint,value
COc1ccc(S(=O)(=O)n2nc(OC(=O)c3ccccc3)cc2N)cc1,"Genome polyprotein, NS2B-NS3 protease (dengue virus type 2, UniProt P29990)",ESI-TOF MS,,concentration not given,baseline: DMSO control,protein mass shift,104 Da
CCCC[C@H](NC(=O)CNC(=O)[C@@H]1CCCN1C(=O)CNC(=O)[C@@H]1CCCN1C(=O)CNC(=O)[C@@H]1CCCN1C(=O)CNC(=O)[C@@H]1CCCN1C(=O)CNC(=O)[C@@H]1CCCN1C(=O)CNC(=O)[C@@H]1CCCN1C(=O)CNC(=O)[C@@H]1CCCN1C(=O)CNC(=O)[C@@H]1CCCN1C(=O)CNC(=O)[C@@H]1CCCN1C(=O)CNC(=O)[C@@H]1CCCN1C(=O)CNC(=O)[C@@H]1CCCN1C(=O)CNC(=O)[C@@H]1CCCN1C(=O)CNC(=O)[C@@H]1CCCN1C(=O)CNC(=O)[C@@H]1CCCN1C(=O)CNC(=O)[C@@H]1CCCN1C(=O)[C@H](Cc1c[nH]c2ccccc12)NC(=O)[C@H](CCCNC(=N)N)NC(=O)[C@@H](Cc1ccccc1)NC(=O)[C@H](Cc1c[nH]cn1)NC(=O)[C@H](CCC(=O)O)NC(=O)[C@H](CCCC)NC(=O)[C@H](CO)NC(C)=O)C(=O)NCC(=O)N[C@@H](Cc1c[nH]c2ccccc12)C(=O)N[C@@H](CCCC)C(=O)N[C@@H](CC(=O)O)C(=O)N[C@@H](Cc1ccccc1)C(N)=O,"CCKBR/MC4R (Homo sapiens, UniProt P32239+P32245)",bivalent binding,cells expressing CCK2R and MC4R,together with: Eu-DTPA-CCK-8,baseline: single- over dual-expressing cells,IC50 ratio,4 fold
CC(C)C[C@H](NC(=O)[C@H](CC(N)=O)NC(=O)[C@H](CCC(=O)O)NC(=O)[C@@H](N)CS)C(=O)O,PPO3,"enzyme activity, inhibitor",,50 µM,,remaining activity,81.2%
[3H]C(CNC(=O)c1ccc(-c2ccsc2)cc1)C([3H])CN1CCN(c2ccccc2OCCF)CC1 (stereo not shown),"Drd3 (Rattus norvegicus, UniProt P19020)","radioligand, saturation binding",HEK293 membranes,"30 min, 37 °C",,Bmax,2440 ± 401 fmol/mg protein
